Results collected from several papers.
Each line is one published result; not all experiments were run side by side. ± marks the error that the study gave.

SMILES | test | test system | conditions | scale | quantity | value
[Cl][212Pb][Cl] | – | athymic mice, C4-2 xenograft, skin | intravenous, 2 h, 212Pb-labelled | – | tissue uptake | 0.62 %ID/g
C[C@]1(CO)Cc2ncn(-c3ccc(C#N)c(Cl)c3)c2C(=O)O1 | – | human | 2 mg single dose | – | subjects with drug-related headache | 0%
CN(C)C1(CNC(=O)c2ccc3c(c2)CCN3C(=O)c2ccccc2)CCOCC1 | – | ICR mouse male, plasma | intraperitoneal, 30 mg/kg | – | volume of distribution | 193 L/kg
CCCSc1ccc2nc(NC(=O)OC)[nH]c2c1 | – | mouse, blood | oral, 50 mg/kg, tolerability, mean | – | mean platelet volume | 5.86 fL
COc1ncnn2ccc(-c3cnc4nc(C)n(Cc5nnc([C@@H](C)F)o5)c4c3)c12 | – | human | oral, dose not given, grade 4 | – | patients with any adverse reaction | 14.3%
CC1(C)C(/C=C(\Cl)C(F)(F)F)C1C(=O)OC(C#N)c1cccc(Oc2ccccc2)c1 (centres unmarked) | measured: CYP2C9 | human, age 5 years | – | – | enzyme contribution to clearance | 0.46%
c1csc(CNc2cc[nH]n2)c1 | micronucleus | CD-1 mouse Hsd:ICR(CD-1), female, bone marrow | oral, 250 mg/kg/day, 3 days | – | PCE to total erythrocyte ratio | 0.474
CC(C)[C@@H]1NC(=O)CNC(=O)[C@H](CC(N)=O)NC(=O)[C@H](CCCNC(=N)N)NC(=O)[C@H](Cc2ccc(O)cc2)NC(=O)[C@H](C(C)C)NC(=O)[C@@H](NC(=O)[C@@H](NC(=O)[C@H](CC(N)=O)NC(=O)[C@H](Cc2c[nH]c3ccccc23)NC(=O)[C@H](C)NC(=O)[C@H](Cc2ccccc2)NC(=O)CN)C(C)C)CSSC[C@@H](C(=O)N[C@@H](Cc2cnc[nH]2)C(=O)N[C@@H](CCCNC(=N)N)C(=O)N[C@@H](CCCNC(=N)N)C(=O)N[C@@H](C)C(=O)N[C@@H](CC(N)=O)C(N)=O)NC(=O)[C@H](C(C)C)NC(=O)[C@H](CCCNC(=N)N)NC1=O | – | ICR mouse, serum | ip, 10 mg/kg, 3 d dosing, blood day 5 | – | blood urea nitrogen | 10.1 ± 0.83 mmol/L
O=C(O)CCCOc1ccc(F)cc1-c1cc(-c2ccccc2C(F)(F)F)n(-c2ccccc2)n1 | – | Crl:CD(SD) rat, male | intravenous, 25 µg/kg, 14 days post-dose | – | pituitary weight | 16.5 ± 1.1 mg
C1=Cc2nc1cc1ccc([n-]1)c(-c1ccccc1)c1nc(cc3ccc([n-]3)c2-c2ccccc2)C=C1.CC(=O)[O-].[Mn+3] | LC-MS/MS | Sprague-Dawley rat, plasma | oral gavage, dose not given, 240 min, individual rat Rat1 | – | plasma concentration | 44 ng/mL
C[C@@H](NC(=O)N1C(=O)[C@H](Cc2ccnc(N)c2)[C@H]1C(=O)O)C1CCCCC1 | – | healthy adult Chinese volunteers | continuous intravenous infusion, 0.3 mg/kg/h, 5-day infusion, CTCAE 5.0 grading | – | incidence of albuminuria | 0%
Cc1ccccc1C(=O)NN=Cc1ccc(O)c(Br)c1 | – | normal C3H/HeN mouse, plasma | intraperitoneal, 0.8 mg/kg | – | Cmax | 82.7 ng/mL
O=C(c1ccc(F)c(F)c1Nc1ccc(I)cc1F)N1CC(O)([C@@H]2CCCCN2)C1 | – | patients aged 6 to sample A years | oral, dose not given | – | AE leading treatment withdrawal | 7%
Cc1cccc(Cn2nc(C3CC3)c3c(NC(=O)c4cnc5cc(OCCN6CCN(C)CC6)ccn45)cccc32)n1 | CTCAE v4.03, measured: AST increased | PD-1/PD-L1 inhibitor-refractory patients | oral, dose not given, added: pembrolizumab IV every 3 weeks | – | all-cause adverse events | 42.1%
C=CC(=O)N1CCC(c2ccc(C(N)=O)c(-c3ccc(Oc4ccccc4)cc3)n2)CC1 | CTCAE 4.03 | patients with relapsed/refractory MCL | oral, 150 mg once daily | – | incidence of fatal serious TEAEs | 0%
COc1ccc(-c2c(-c3ccc(C#N)c(F)c3)nc(N3CCC(N)CC3)n(C)c2=O)cc1F | measured: Pruritus | neuroendocrine neoplasm patients | oral, 60 mg, any grade, dose expansion | – | treatment-related adverse event incidence | 6%
COc1cc2c(Oc3ccc4[nH]c(C)cc4c3F)ccnc2cc1OCC1(N)CC1 | – | paediatric refractory sarcoma patients | 10 mg | – | grade 1-2 T-wave abnormality | 50%
CO[C@H]1C[C@@H]2CC[C@@H](C)[C@@](O)(O2)C(=O)C(=O)N2CCCC[C@H]2C(=O)O[C@H]([C@H](C)C[C@@H]2CC[C@@H](OC(=O)NCCOCCOCCOCCOCCOCCOCCOCCOCCC(=O)N3CCc4cc(Cn5nc(-c6ccc7oc(N)nc7c6)c6c(N)ncnc65)ccc4C3)[C@H](OC)C2)C[C@@H](O)[C@H](C)/C=C(\C)[C@@H](O)[C@@H](OC)C(=O)[C@H](C)C[C@H](C)/C=C/C=C/C=C/1C | phase 1 dose escalation, measured: mucositis | advanced solid tumour patients | intravenous, 6 mg weekly, grade ≥3 | – | dose-reducing adverse events | 0%
CC(C)C(=O)OC[C@H]1O[C@@H](n2ccc(NO)nc2=O)[C@H](O)[C@@H]1O | – | rat placenta dialysate | 5 ng/mL, 6 h, 10 °C, low QC concentration, added: NHC 25 ng/mL | – | autosampler stability | 102 ± 3.15%

SMILES | test | test system | conditions | scale | quantity | value
O=c1ccc2ccc3occc3c2o1 | – | rat plasma | 1000 ng/mL, 2 weeks, -70 °C, post-preparative stability | – | accuracy | 95%
CC(C)Nc1ccnc(Nc2cccc(-c3cccnc3)c2)n1 | measured: total bilirubin | mouse, blood | intraperitoneal, 3 mg/kg | – | blood chemistry | 0.27 mg/dL
CN1CC[C@@H](c2c(O)cc(O)c3c(=O)cc(-c4ccc(C(F)(F)F)cc4Cl)oc23)[C@@H]1CO | measured: Dyspnea | AML | oral, 100 mg, intermittent dosing | – | patients with adverse event | 0%
CC(=O)c1c(C)c2cnc(Nc3ccc(C4CCN(CCS(C)(=O)=O)CC4)cn3)nc2n(C2CCCC2)c1=O | – | human, plasma | oral, 50 mg twice daily, day 21, multiple doses, added: letrozole | – | Cmax | 114 ng/mL
O=C(Nc1ccccc1)C1CCN(C(=O)Oc2cccnc2)CC1 | psychotropic effects VAS | healthy women | 60 mg | reference: pre-dose baseline, direction not given | change in High score | 6.5
C[C@H](O)C(=O)C1=Nc2c(nc(N)[nH]c2=O)NC1 | – | healthy human volunteers | oral, 20 mg/kg, monotherapy | reference: subjects | fatal TEAE incidence | 0%
NCCCC[C@@H]1NC(=O)[C@@H](Cc2c[nH]c3ccccc23)NC(=O)[C@H](c2ccccc2)NC(=O)[C@@H]2C[C@@H](OC(=O)NCCN)CN2C(=O)[C@H](Cc2ccccc2)NC(=O)[C@H](Cc2ccc(OCc3ccccc3)cc2)NC1=O | – | healthy volunteers, male | 600 µg twice daily, 8.0 h, post hoc | – | placebo-corrected QTcF change | 3.9 ms
C[C@@H](c1ncncc1F)[C@](O)(Cn1cncn1)c1ccc(F)cc1F | – | human | oral, 200 mg, drug interaction trial | – | deaths | 0%
CC(C)(O)c1cc(Nc2cc(Oc3cn(C4CC4)nc3C3CCOCC3)ccn2)ccn1 | Diarrhea | advanced cancer patients, dose escalation | oral, dose not given, 2 weeks on/off, all causality grade ≥3 | – | treatment-emergent adverse events | 0%
COc1ncccc1-c1cnn2ccc(N3CCN(C(=O)OC(C)C)CC3)nc12 | – | rat, thermal hyperalgesia model, plasma | oral, 0.1 mg/kg, 180 min | – | free drug concentration | 0.2 nM
O.O.O.O.O.O.[Cl-].[Cl-].[Co+2] | – | rat female, faeces | oral gavage, 10 mg/kg single, day 1, pooled samples | reference: vehicle control subtracted | cobalt in faeces | 47.5 µg/g
CCCCCOc1ccc(-c2ccc(-c3ccc(C(=O)N[C@H]4C[C@@H](O)[C@@H](OCC[N+](C)(C)C)NC(=O)[C@@H]5[C@@H](O)[C@@H](C)CN5C(=O)[C@H]([C@@H](C)O)NC(=O)[C@H]([C@H](O)[C@@H](O)c5ccc(O)cc5)NC(=O)[C@@H]5C[C@@H](O)CN5C(=O)[C@H]([C@@H](C)O)NC4=O)cc3)cc2)cc1 | – | adult patients not in ICU, plasma | intravenous, 400 mg loading, after first dose, median | – | AUC(0-168 h) | 788 µg·h/mL
CNC(=O)CC1C(=O)N(C2CCN(C3CCC(C(C)C)CC3)CC2)c2ccccc21 (centres unmarked) | – | conscious Sprague-Dawley rat | intravenous bolus, 30 nmol/kg | – | sedation duration | ~30 min
C[C@@H]1OC(=O)NN=C1c1ccc(-c2ccc(F)cc2)c(C(F)(F)F)c1 | phase I trial, measured: Ascites worst grade 2 | human patients | 10 mg loading then 0.5 mg daily | – | patients with adverse event | 0%
Oc1ccc(CSCc2ccc(O)cc2)cc1 | – | ICR mice male | oral, 3000 mg/kg, day 1 before dosing, acute toxicity | – | body weight | 30.4 ± 0.69 g
CCc1ccc(CC/C=C/c2ccc3c(c2)C(=O)CC3)cc1 | – | Sprague-Dawley rat, female | oral, 450 mg/kg/day, 14 days | – | GGT serum activity | 1.67 U/L
Cc1ncnc2c1ccn2[C@@H]1C[C@H](Oc2cc(C(F)F)c(F)c3c2CNCC3)[C@@H](O)[C@H]1O | – | patients | dose not given, grade ≥3 | reference: patients | Hypomagnesemia incidence | 0%
Cn1c(-c2ccc(C(N)=O)cc2F)nnc1C(C)(C)Oc1c(F)cc(Cl)cc1F | – | human | oral, 10 mg, single ascending dose | – | medical device site reaction TEAE | 0%
C[C@@H]1NC(=O)[C@H](CCCCNC(=O)CO/N=C/C(=O)NCCCC[C@@H]2NC(=O)[C@@H](Cc3ccccc3)NC(=O)[C@H](CC(=O)O)NC(=O)CNC(=O)[C@H](CCCNC(=N)N)NC2=O)NC(=O)CNC(=O)[C@@H]2CCCN2C(=O)[C@H](CCCCNC(=O)CO/N=C/C(=O)NCCCC[C@@H]2NC(=O)[C@@H](Cc3ccccc3)NC(=O)[C@H](CC(=O)O)NC(=O)CNC(=O)[C@H](CCCNC(=N)N)NC2=O)NC(=O)[C@H](CCCCNC(=O)CCNC(=O)CCNC(=O)CCNC(=O)[C@H](CCCCN)NC(=O)[C@H](Cc2ccccc2)NC(=O)CNC(=O)CN2CCCNCCNCCCNCC2)NC(=O)[C@H](CCCCNC(=O)CO/N=C/C(=O)NCCCC[C@@H]2NC(=O)[C@@H](Cc3ccccc3)NC(=O)[C@H](CC(=O)O)NC(=O)CNC(=O)[C@H](CCCNC(=N)N)NC2=O)NC(=O)CNC(=O)[C@@H]2CCCN2C(=O)[C@H](CCCCNC(=O)CO/N=C/C(=O)NCCCC[C@@H]2NC(=O)[C@@H](Cc3ccccc3)NC(=O)[C@H](CC(=O)O)NC(=O)CNC(=O)[C@H](CCCNC(=N)N)NC2=O)NC1=O [copper-64 labelled] | PET imaging | mouse, U-87 MG tumour xenograft, kidney | intravenous, 24 h | – | tissue uptake | 4.22 ± 1.52 %ID/g
